# Experimental data gathered from unrelated publications.
# Each numbered part is a random draw from the data of one study; scales do not carry over between parts.
# UniProt P15056, sequence (whole entry, unmodified, looked up): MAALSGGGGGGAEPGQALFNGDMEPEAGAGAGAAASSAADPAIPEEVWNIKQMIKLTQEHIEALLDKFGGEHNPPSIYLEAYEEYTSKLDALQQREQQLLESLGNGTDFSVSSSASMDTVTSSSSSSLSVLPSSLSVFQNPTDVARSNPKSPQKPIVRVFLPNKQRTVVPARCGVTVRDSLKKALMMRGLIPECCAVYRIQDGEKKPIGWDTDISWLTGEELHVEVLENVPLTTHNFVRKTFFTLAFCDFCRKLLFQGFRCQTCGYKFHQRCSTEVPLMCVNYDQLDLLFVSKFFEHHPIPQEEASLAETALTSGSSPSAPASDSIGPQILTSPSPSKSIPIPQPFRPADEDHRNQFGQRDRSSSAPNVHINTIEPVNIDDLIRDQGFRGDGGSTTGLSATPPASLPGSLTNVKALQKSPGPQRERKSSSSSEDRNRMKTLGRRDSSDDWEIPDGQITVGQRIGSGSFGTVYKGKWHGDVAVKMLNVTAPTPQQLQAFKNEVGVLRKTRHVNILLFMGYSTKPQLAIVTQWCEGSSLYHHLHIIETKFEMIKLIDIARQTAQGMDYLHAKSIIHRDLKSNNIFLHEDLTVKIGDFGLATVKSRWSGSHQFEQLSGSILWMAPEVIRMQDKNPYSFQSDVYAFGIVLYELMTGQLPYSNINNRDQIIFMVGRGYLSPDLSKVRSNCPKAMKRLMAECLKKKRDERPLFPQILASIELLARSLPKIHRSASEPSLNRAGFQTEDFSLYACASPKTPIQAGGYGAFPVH
# UniProt P42336, sequence (whole entry, unmodified, looked up): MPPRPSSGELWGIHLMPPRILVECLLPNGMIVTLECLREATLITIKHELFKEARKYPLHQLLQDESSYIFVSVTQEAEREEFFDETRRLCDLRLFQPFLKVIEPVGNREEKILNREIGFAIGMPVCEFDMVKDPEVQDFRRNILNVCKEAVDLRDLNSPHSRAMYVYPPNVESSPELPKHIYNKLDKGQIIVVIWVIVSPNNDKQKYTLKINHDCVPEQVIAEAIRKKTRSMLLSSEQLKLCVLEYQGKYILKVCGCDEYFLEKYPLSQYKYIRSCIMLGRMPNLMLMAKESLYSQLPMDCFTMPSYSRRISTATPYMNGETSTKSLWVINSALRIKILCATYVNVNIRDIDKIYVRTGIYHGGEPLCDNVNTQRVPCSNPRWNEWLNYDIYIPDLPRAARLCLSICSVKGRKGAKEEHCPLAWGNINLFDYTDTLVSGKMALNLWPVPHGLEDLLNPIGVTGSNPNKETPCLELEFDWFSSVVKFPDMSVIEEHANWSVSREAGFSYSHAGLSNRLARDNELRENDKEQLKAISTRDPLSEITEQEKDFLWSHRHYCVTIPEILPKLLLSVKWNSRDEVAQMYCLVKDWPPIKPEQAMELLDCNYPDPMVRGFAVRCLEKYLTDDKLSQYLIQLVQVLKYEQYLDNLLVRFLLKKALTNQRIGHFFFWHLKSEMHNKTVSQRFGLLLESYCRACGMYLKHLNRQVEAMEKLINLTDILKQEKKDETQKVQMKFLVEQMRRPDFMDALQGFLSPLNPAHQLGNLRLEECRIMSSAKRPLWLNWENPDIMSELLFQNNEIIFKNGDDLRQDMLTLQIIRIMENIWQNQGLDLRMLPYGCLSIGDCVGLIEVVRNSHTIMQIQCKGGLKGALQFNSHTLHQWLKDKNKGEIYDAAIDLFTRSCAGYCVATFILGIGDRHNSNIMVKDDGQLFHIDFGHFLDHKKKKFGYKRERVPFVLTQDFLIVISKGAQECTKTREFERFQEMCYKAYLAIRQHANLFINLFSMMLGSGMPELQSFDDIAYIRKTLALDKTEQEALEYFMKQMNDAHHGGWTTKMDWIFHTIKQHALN
# UniProt O43683, sequence (whole entry, looked up): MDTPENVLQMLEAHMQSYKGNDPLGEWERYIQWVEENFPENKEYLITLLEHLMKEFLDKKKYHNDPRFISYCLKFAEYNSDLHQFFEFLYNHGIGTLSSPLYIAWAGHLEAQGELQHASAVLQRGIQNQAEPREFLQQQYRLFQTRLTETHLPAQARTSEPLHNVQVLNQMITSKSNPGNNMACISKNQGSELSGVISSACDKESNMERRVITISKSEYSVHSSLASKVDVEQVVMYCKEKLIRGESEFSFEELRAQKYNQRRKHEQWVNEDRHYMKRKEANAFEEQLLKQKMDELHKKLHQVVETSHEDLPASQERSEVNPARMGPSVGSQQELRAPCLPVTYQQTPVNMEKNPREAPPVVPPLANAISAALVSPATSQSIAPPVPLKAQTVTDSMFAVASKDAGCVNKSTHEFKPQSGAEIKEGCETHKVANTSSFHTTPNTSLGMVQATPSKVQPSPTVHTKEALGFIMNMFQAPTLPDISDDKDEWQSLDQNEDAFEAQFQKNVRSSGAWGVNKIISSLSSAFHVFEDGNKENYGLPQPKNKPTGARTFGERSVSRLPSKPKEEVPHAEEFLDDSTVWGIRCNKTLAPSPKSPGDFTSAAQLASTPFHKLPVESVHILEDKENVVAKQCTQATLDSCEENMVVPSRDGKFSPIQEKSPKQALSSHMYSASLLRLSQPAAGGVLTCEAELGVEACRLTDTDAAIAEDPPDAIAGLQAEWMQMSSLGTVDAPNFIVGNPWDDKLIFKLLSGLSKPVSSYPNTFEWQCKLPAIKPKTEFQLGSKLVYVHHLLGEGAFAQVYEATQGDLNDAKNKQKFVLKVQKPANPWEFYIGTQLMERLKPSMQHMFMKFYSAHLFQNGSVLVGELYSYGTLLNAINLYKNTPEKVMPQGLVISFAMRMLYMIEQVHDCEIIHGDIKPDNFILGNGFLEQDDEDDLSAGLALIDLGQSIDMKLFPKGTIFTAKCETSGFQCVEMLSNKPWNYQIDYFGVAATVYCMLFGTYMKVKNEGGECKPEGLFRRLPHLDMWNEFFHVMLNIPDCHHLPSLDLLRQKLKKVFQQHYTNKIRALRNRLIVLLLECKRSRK
# UniProt Q9Y6E0, sequence (whole entry, looked up): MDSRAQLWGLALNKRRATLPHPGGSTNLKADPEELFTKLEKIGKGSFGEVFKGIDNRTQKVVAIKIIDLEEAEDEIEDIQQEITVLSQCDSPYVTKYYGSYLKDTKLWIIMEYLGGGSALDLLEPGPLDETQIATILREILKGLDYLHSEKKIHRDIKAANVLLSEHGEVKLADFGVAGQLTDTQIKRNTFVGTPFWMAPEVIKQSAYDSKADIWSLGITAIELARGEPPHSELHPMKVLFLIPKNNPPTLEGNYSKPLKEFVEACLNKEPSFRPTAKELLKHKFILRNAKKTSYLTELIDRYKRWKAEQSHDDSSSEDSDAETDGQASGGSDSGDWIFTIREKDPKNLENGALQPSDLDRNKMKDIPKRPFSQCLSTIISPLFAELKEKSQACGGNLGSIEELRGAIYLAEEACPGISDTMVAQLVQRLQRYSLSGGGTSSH
# UniProt Q9HCP0, sequence (whole entry, looked up): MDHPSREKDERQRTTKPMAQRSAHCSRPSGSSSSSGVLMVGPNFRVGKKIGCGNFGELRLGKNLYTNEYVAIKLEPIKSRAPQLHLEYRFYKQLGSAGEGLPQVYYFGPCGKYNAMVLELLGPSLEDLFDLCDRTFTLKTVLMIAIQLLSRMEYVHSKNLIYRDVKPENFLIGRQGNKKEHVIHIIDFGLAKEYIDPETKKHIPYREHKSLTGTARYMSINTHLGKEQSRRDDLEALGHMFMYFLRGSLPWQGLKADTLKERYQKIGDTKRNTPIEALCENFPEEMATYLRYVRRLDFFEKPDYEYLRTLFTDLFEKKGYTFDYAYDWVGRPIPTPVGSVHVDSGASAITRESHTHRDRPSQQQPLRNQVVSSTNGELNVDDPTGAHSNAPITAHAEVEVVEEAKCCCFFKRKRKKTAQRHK
# UniProt P36894, sequence (whole entry, looked up): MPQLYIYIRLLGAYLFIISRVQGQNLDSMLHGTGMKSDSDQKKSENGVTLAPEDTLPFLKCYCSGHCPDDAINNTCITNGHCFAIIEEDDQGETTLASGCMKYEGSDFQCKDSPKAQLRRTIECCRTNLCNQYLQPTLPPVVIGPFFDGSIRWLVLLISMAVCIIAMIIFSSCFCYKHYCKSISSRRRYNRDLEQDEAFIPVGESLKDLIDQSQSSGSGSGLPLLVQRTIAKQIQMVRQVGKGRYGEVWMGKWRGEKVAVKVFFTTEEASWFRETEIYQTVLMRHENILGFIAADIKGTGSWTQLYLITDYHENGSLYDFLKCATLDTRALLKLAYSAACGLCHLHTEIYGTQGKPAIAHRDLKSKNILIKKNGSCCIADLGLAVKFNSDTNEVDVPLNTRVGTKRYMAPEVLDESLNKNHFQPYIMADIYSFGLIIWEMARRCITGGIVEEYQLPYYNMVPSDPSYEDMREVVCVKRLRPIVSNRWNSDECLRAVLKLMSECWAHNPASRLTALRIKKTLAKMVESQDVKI
# UniProt Q8TDR2, sequence (whole entry, looked up): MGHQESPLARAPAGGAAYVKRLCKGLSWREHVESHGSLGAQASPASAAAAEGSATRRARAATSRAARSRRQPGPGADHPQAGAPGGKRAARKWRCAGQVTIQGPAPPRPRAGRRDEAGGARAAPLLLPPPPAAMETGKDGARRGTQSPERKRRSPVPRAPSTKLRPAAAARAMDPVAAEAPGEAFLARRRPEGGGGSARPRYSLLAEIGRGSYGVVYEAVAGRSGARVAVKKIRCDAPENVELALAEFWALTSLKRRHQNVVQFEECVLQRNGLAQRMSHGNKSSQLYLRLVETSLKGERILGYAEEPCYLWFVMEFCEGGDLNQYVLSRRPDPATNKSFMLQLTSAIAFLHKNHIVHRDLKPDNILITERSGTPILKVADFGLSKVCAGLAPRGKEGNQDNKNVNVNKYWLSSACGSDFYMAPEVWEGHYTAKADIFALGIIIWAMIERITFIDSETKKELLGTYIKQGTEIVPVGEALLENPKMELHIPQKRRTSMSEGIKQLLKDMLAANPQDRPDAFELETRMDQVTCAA

# Series 1
# SMILES: CSc1cccnc1N1CCN(Cc2nc3ccccc3[nH]2)CC1
# Concentration: 1 µM
target,assay,setting,how to read,remaining binding [%]
"Serine/threonine-protein kinase 24 (STK24, Homo sapiens, UniProt Q9Y6E0)","cell-free assay, competition with immobilised ligand",,,100
"Mitogen-activated protein kinase kinase kinase kinase 3 (MAP4K3, Homo sapiens, UniProt Q8IVH8)","cell-free assay, competition with immobilised ligand",,,100
"Serine/threonine-protein kinase B-raf (BRAF, Homo sapiens, UniProt P15056, V600E)","cell-free assay, competition with immobilised ligand",,,85
"Cyclin-dependent kinase-like 3 (CDKL3, Homo sapiens, UniProt Q8IVW4)","binding, competition with immobilised ligand",,,100
"Bone morphogenetic protein receptor type-1A (BMPR1A, Homo sapiens, UniProt P36894)","binding, competition with immobilised ligand",,,100
"Serine/threonine-protein kinase Chk1 (CHEK1, Homo sapiens, UniProt O14757)","cell-free assay, competition with immobilised ligand",,,94
"Proto-oncogene tyrosine-protein kinase receptor Ret (RET, Homo sapiens, UniProt P07949, V804M)","cell-free assay, competition with immobilised ligand",,,100
"Protein-tyrosine kinase 2-beta (PTK2B, Homo sapiens, UniProt Q14289)","cell-free assay, competition with immobilised ligand",,,100
"Phosphatidylinositol 4,5-bisphosphate 3-kinase catalytic subunit alpha isoform (PIK3CA, Homo sapiens, UniProt P42336, E545A)","cell-free assay, competition with immobilised ligand",,,96
"Death-associated protein kinase 1 (DAPK1, Homo sapiens, UniProt P53355)","cell-free assay, competition with immobilised ligand",,,100
"Phosphatidylinositol 4,5-bisphosphate 3-kinase catalytic subunit alpha isoform (PIK3CA, Homo sapiens, UniProt P42336, E545K)","cell-free assay, competition with immobilised ligand",,,74
"Tyrosine-protein kinase ABL1 (ABL1, Homo sapiens, UniProt P00519, E255K)",KINOMEscan,"E255K mutant, phosphorylated",reference: control,67
"Serine/threonine-protein kinase B-raf (BRAF, Homo sapiens, UniProt P15056)","cell-free assay, competition with immobilised ligand",,,89
"Serine/threonine-protein kinase 35 (STK35, Homo sapiens, UniProt Q8TDR2)","cell-free assay, competition with immobilised ligand",,,100
"Mitotic checkpoint serine/threonine-protein kinase BUB1 (BUB1, Homo sapiens, UniProt O43683)","cell-free assay, competition with immobilised ligand",,,90
"Mitogen-activated protein kinase 3 (MAPK3, Homo sapiens, UniProt P27361)","cell-free assay, competition with immobilised ligand",,,99
"Casein kinase I isoform gamma-1 (CSNK1G1, Homo sapiens, UniProt Q9HCP0)","cell-free assay, competition with immobilised ligand",,,100
"Receptor-type tyrosine-protein kinase FLT3 (FLT3, Homo sapiens, UniProt P36888, N841I)","cell-free assay, competition with immobilised ligand",,,100

# Series 2
# Target: Sal-like protein 4, full length isoform B (SALL4, Homo sapiens, UniProt Q9UJQ4-2, residues 1-616)
# Technique: universal PBM
# Form: double-stranded DNA, one strand shown
# Matrix: in vitro
# Concentration: not given
# Setting: 8-mer, flanks averaged, mean of replicates
# Direction: higher = stronger binding
Oligonucleotide,E-score
ATCGTGTC,0.0299
GCCGTGTA,-0.0522
ACGATAGG,0.0817
CTTACAGA,-0.0795
TCAACCGA,0.0106
CTTCAGCC,-0.192
CACTCTCC,-0.036
AACCAAAA,0.132

# Series 3
# Target: Histone acetyltransferase KAT6A, winged helix 2, GST fusion (KAT6A, Homo sapiens, UniProt Q92794, residues 85-181)
# Technique: protein binding microarray
# Form: double-stranded DNA, one strand shown
# Matrix: in vitro
# Concentration: not given
# Setting: 8-mer, flanks averaged, mean of 2 arrays, mostly near background
# Reference: not given
# Direction: higher = stronger binding
# Construct (chain): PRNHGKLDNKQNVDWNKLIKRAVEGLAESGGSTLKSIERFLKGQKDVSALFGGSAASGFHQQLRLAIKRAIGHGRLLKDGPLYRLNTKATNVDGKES
Oligonucleotide,E-score
CATGCGCA,0.0675
CACTACCA,0.0518
ATCACCGA,-0.0383
GCATCAGA,0.11
GACAGAGC,0.0332
AACCCCTT,-0.113
CCGCCCAC,0.214
GAAGGGTC,-0.13

# Single results of other studies
Compound,target or system,assay,setting,quantity,result
C[C@@H]1O[C@@H](O[C@H]2[C@H](Oc3cc(O)c4c(c3)O[C@H](c3ccc(O)cc3)CC4=O)O[C@H](CO)[C@@H](O)[C@@H]2O)[C@H](O)[C@H](O)[C@H]1O,A-375,,"100 µM, 36 h",viability,90.1%
Cc1[nH]c(=O)c(C#N)cc1-c1ccncc1,Sarcocystis neurona,parasite growth,"10 µM, secondary screen",inhibition,-36.6%

# A few entries again (series 1):
target,assay,setting,how to read,remaining binding [%]
"Phosphatidylinositol 4,5-bisphosphate 3-kinase catalytic subunit alpha isoform (PIK3CA, Homo sapiens, UniProt P42336, E545K)","cell-free assay, competition with immobilised ligand",,,74
"Tyrosine-protein kinase ABL1 (ABL1, Homo sapiens, UniProt P00519, E255K)",KINOMEscan,"E255K mutant, phosphorylated",reference: control,67
"Serine/threonine-protein kinase 24 (STK24, Homo sapiens, UniProt Q9Y6E0)","cell-free assay, competition with immobilised ligand",,,100
"Proto-oncogene tyrosine-protein kinase receptor Ret (RET, Homo sapiens, UniProt P07949, V804M)","cell-free assay, competition with immobilised ligand",,,100
"Phosphatidylinositol 4,5-bisphosphate 3-kinase catalytic subunit alpha isoform (PIK3CA, Homo sapiens, UniProt P42336, E545A)","cell-free assay, competition with immobilised ligand",,,96
